{"data": "Assay results of several laboratories", "HLA class I histocompatibility antigen, A alpha chain allele A*01:01": "HLA class I histocompatibility antigen, A alpha chain, allele A*01:01 (Homo sapiens, UniProt P04439)", "Histone H3.1": "Histone H3.1 (Homo sapiens, UniProt P68431)", "SMC5": "SMC5 (Saccharomyces cerevisiae, UniProt Q08204)", "ORC3": "ORC3 (Saccharomyces cerevisiae, UniProt P54790)", "CDC45": "CDC45 (Saccharomyces cerevisiae, UniProt Q08032)", "note": "Lines come from different studies, so protocols differ.", "UniProt Q08204, sequence (whole entry, looked up)": "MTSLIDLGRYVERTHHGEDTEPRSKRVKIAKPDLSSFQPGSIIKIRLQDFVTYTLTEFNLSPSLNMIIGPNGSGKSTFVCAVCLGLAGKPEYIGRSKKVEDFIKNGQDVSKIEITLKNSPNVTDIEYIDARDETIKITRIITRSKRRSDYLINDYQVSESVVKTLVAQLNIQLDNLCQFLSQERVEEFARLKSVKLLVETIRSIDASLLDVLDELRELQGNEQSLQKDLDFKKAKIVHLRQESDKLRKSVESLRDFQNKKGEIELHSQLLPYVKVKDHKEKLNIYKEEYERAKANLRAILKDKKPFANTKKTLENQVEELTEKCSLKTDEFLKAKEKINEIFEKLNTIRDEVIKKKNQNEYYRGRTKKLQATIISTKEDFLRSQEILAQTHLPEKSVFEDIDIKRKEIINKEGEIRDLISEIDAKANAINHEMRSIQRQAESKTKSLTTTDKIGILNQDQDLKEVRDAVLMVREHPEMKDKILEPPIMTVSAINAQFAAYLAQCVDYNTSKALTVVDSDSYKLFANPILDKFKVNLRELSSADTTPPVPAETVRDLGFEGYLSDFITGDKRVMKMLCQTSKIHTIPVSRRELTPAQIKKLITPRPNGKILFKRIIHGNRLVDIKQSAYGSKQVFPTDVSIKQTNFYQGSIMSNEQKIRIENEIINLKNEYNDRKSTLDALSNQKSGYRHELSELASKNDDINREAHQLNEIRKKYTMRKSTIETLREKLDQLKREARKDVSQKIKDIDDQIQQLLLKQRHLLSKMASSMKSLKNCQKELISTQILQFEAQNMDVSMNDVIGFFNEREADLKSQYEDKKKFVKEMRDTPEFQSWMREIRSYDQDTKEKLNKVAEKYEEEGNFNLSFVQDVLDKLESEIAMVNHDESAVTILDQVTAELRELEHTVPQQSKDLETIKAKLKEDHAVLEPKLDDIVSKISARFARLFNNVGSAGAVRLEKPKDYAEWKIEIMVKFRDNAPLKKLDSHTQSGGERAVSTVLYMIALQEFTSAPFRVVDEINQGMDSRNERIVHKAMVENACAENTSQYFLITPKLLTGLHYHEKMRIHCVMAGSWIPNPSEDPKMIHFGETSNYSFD", "UniProt P29496, sequence (whole entry, looked up)": "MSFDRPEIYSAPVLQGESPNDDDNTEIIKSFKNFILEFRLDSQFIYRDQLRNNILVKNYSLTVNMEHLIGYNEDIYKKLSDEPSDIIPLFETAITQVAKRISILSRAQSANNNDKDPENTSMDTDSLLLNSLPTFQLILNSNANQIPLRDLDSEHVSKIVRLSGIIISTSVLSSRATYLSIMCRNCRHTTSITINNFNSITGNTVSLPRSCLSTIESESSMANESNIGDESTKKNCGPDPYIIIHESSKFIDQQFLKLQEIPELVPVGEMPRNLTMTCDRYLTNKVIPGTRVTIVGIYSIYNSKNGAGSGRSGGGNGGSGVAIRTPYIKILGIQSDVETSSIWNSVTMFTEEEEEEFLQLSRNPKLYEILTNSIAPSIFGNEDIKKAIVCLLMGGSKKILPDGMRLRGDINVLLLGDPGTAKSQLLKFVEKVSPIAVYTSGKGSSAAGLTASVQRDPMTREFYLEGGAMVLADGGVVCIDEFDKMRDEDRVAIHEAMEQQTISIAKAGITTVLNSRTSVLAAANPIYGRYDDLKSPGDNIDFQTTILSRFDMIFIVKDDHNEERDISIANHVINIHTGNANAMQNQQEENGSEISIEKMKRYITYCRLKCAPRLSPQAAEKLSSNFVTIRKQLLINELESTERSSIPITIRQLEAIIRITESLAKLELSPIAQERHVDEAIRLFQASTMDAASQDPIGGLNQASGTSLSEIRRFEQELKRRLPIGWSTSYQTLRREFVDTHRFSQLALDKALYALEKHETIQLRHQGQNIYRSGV", "UniProt P54784, sequence (whole entry, looked up)": "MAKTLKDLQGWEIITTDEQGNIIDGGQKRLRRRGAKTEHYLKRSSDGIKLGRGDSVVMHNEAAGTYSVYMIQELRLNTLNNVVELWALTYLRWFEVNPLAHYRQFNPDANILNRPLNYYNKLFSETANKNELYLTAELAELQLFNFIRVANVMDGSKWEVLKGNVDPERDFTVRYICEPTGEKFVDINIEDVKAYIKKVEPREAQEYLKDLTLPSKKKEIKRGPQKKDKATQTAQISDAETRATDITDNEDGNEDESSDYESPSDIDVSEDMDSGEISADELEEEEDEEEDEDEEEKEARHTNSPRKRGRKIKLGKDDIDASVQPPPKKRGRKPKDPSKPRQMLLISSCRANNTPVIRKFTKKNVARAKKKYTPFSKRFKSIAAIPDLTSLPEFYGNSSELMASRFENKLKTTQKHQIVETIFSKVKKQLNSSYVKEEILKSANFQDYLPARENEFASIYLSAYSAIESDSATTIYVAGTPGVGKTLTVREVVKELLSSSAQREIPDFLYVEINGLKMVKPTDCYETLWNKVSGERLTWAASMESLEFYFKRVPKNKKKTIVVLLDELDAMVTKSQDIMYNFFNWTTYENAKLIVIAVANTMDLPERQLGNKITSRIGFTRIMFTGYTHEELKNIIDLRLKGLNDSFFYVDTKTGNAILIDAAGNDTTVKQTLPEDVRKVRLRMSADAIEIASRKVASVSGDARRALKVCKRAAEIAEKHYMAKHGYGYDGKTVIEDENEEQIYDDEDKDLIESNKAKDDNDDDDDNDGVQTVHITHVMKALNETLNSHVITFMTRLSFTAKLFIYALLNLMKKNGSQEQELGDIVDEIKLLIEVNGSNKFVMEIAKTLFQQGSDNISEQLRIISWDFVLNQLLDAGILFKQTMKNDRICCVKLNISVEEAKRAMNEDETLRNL", "UniProt P32833, sequence (whole entry, looked up)": "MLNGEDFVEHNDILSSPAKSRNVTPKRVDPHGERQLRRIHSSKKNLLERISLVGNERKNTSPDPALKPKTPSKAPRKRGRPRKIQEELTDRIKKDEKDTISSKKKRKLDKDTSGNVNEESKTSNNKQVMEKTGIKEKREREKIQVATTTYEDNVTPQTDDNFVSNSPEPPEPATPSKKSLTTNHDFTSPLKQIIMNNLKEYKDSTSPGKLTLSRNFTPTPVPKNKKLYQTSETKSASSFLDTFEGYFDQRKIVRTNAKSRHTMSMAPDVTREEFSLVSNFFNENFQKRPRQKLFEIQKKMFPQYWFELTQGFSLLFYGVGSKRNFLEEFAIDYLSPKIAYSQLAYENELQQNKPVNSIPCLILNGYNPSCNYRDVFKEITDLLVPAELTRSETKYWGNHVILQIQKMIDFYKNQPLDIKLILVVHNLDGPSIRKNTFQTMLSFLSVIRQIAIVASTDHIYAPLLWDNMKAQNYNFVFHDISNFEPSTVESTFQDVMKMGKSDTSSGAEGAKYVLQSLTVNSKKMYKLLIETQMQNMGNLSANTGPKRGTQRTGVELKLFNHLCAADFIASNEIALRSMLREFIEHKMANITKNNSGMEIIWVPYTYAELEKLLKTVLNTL", "UniProt P54790, sequence (whole entry, looked up)": "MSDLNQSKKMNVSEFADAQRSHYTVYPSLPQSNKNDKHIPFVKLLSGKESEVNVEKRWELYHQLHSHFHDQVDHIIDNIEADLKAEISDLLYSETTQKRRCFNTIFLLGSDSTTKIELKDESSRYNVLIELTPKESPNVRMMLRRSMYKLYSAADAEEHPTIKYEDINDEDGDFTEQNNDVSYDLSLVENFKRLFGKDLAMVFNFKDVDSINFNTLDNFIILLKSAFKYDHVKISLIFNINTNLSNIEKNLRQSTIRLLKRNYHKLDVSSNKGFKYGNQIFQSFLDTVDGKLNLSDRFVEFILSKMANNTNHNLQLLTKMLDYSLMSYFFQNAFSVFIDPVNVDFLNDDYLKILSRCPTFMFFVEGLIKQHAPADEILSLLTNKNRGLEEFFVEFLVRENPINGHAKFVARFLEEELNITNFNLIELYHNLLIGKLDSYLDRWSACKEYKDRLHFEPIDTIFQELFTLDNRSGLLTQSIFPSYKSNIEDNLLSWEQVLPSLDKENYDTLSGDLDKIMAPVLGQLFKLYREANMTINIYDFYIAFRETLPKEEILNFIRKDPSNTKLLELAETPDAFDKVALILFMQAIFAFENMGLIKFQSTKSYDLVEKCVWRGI", "UniProt P30665, sequence (whole entry, looked up)": "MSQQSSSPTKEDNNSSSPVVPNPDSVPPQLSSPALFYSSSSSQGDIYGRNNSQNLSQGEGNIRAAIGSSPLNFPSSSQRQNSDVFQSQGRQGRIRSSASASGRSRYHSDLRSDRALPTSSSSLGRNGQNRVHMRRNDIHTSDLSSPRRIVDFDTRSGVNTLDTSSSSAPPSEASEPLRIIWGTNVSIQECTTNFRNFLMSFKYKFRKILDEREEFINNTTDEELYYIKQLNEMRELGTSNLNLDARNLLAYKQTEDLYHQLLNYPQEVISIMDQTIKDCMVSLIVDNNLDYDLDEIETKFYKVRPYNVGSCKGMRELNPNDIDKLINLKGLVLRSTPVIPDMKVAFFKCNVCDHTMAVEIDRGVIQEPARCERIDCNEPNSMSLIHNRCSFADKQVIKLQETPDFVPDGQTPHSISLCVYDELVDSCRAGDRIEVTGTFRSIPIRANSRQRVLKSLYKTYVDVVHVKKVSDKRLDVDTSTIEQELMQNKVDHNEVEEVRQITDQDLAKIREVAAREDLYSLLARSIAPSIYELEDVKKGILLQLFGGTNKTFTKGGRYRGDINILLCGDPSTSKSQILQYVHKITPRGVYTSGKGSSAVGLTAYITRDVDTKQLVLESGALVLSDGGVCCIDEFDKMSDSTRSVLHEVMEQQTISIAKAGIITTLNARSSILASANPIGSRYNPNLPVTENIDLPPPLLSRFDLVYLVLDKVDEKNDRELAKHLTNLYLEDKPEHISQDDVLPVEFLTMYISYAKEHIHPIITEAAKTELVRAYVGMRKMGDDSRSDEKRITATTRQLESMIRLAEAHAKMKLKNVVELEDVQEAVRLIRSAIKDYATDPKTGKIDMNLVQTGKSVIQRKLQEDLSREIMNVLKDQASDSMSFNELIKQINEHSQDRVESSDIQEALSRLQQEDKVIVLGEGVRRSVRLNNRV"}
{"Substance": "LMPFGSLL", "target or system": "HLA class I histocompatibility antigen, A alpha chain allele A*01:01", "assay": "conformational ELISA", "system": "peptide", "setting": "concentration not given", "how to read": "baseline: positive control peptide, direction not given", "endpoint": "binding score", "value": "0.1%"}
{"Substance": "Histone H2B type 1-C/E/F/G/I (Homo sapiens, UniProt P62807)", "target or system": "Histone H3.1", "assay": "cross-linking MS", "setting": "hits only", "endpoint": "interaction screen", "value": "cross-linked"}
{"Substance": "NSE3 (Saccharomyces cerevisiae, UniProt Q05541)", "target or system": "SMC5", "assay": "cross-linking MS", "setting": "hits only", "endpoint": "interaction screen", "value": "cross-linked"}
{"Substance": "TASPAKETSF", "target or system": "human MAGI1-2/6 PDZ construct (MBP fusion)", "assay": "automated holdup", "system": "peptide, purified PDZ protein", "setting": "concentration not given, unit not given", "how to read": "baseline: biotin control resin, higher = stronger binding", "endpoint": "binding intensity", "value": -0.0731}
{"Substance": "ORC5 (Saccharomyces cerevisiae, UniProt P50874)", "target or system": "ORC3", "assay": "cross-linking MS", "setting": "hits only", "endpoint": "interaction screen", "value": "cross-linked"}
{"Substance": "BAIAP3 (Homo sapiens, UniProt O94812)", "target or system": "PHB1 (Homo sapiens, UniProt P35232)", "assay": "cross-linking MS", "setting": "hits only", "endpoint": "interaction screen", "value": "cross-linked"}
{"Substance": "MCM7 (Saccharomyces cerevisiae, UniProt P38132)", "target or system": "MCM6 (Saccharomyces cerevisiae, UniProt P53091)", "assay": "cross-linking MS", "setting": "hits only", "endpoint": "interaction screen", "value": "cross-linked"}
{"Substance": "MCM4 (Saccharomyces cerevisiae, UniProt P30665)", "target or system": "MCM7 (Saccharomyces cerevisiae, UniProt P38132)", "assay": "cross-linking MS", "setting": "hits only", "endpoint": "interaction screen", "value": "cross-linked"}
{"Substance": "NSE4 (Saccharomyces cerevisiae, UniProt P43124)", "target or system": "SMC5", "assay": "cross-linking MS", "setting": "hits only", "endpoint": "interaction screen", "value": "cross-linked"}
{"Substance": "CDC6 (Saccharomyces cerevisiae, UniProt P09119)", "target or system": "ORC1 (Saccharomyces cerevisiae, UniProt P54784)", "assay": "cross-linking MS", "setting": "hits only", "endpoint": "interaction screen", "value": "cross-linked"}
{"Substance": "NSE5 (Saccharomyces cerevisiae, UniProt Q03718)", "target or system": "SMC5", "assay": "cross-linking MS", "setting": "hits only", "endpoint": "interaction screen", "value": "cross-linked"}
{"Substance": "SLC25A6 (Homo sapiens, UniProt P12236)", "target or system": "Histone H3.1", "assay": "cross-linking MS", "setting": "hits only", "endpoint": "interaction screen", "value": "cross-linked"}
{"Substance": "MCM2 (Saccharomyces cerevisiae, UniProt P29469)", "target or system": "CDC45", "assay": "cross-linking MS", "setting": "hits only", "endpoint": "interaction screen", "value": "cross-linked"}
{"Substance": "MCM3 (Saccharomyces cerevisiae, UniProt P24279)", "target or system": "MCM5 (Saccharomyces cerevisiae, UniProt P29496)", "assay": "cross-linking MS", "setting": "hits only", "endpoint": "interaction screen", "value": "cross-linked"}
{"Substance": "LTSTVQLIMQL", "target or system": "HLA class I histocompatibility antigen, A alpha chain allele A*01:01", "assay": "conformational ELISA", "system": "peptide", "setting": "concentration not given", "how to read": "baseline: positive control peptide, direction not given", "endpoint": "binding score", "value": "1.4%"}
{"Substance": "MCM5 (Saccharomyces cerevisiae, UniProt P29496)", "target or system": "MCM4 (Saccharomyces cerevisiae, UniProt P30665)", "assay": "cross-linking MS", "setting": "hits only", "endpoint": "interaction screen", "value": "cross-linked"}
{"Substance": "H2BC5 (Homo sapiens, UniProt P58876)", "target or system": "H3-3A (Homo sapiens, UniProt P84243)", "assay": "cross-linking MS", "setting": "hits only", "endpoint": "interaction screen", "value": "cross-linked"}
{"Substance": "MCM5 (Saccharomyces cerevisiae, UniProt P29496)", "target or system": "ORC2 (Saccharomyces cerevisiae, UniProt P32833)", "assay": "cross-linking MS", "setting": "hits only", "endpoint": "interaction screen", "value": "cross-linked"}
{"Substance": "KRE29 (Saccharomyces cerevisiae, UniProt P40026)", "target or system": "NSE3 (Saccharomyces cerevisiae, UniProt Q05541)", "assay": "cross-linking MS", "setting": "hits only", "endpoint": "interaction screen", "value": "cross-linked"}
{"Substance": "H2AX (Homo sapiens, UniProt P16104)", "target or system": "Histone H3.1", "assay": "cross-linking MS", "setting": "hits only", "endpoint": "interaction screen", "value": "cross-linked"}
{"Substance": "ORC1 (Saccharomyces cerevisiae, UniProt P54784)", "target or system": "ORC4 (Saccharomyces cerevisiae, UniProt P54791)", "assay": "cross-linking MS", "setting": "hits only", "endpoint": "interaction screen", "value": "cross-linked"}
{"Substance": "QGRWDHETIV", "target or system": "human MAGI1-2/6 PDZ construct (MBP fusion)", "assay": "automated holdup", "system": "peptide, crude extract", "setting": "concentration not given, uncorrected, unit not given", "how to read": "baseline: biotin control resin, higher = stronger binding", "endpoint": "binding intensity", "value": 0.283}
{"Substance": "H2BC12 (Homo sapiens, UniProt O60814)", "target or system": "H2AC20 (Homo sapiens, UniProt Q16777)", "assay": "cross-linking MS", "setting": "hits only", "endpoint": "interaction screen", "value": "cross-linked"}
{"Substance": "MCM3 (Saccharomyces cerevisiae, UniProt P24279)", "target or system": "MCM2 (Saccharomyces cerevisiae, UniProt P29469)", "assay": "cross-linking MS", "setting": "hits only", "endpoint": "interaction screen", "value": "cross-linked"}
{"Substance": "ORC2 (Saccharomyces cerevisiae, UniProt P32833)", "target or system": "ORC3", "assay": "cross-linking MS", "setting": "hits only", "endpoint": "interaction screen", "value": "cross-linked"}
{"Substance": "PSF2 (Saccharomyces cerevisiae, UniProt P40359)", "target or system": "CDC45", "assay": "cross-linking MS", "setting": "hits only", "endpoint": "interaction screen", "value": "cross-linked"}
{"Substance": "H2BC3 (Homo sapiens, UniProt P33778)", "target or system": "H2AC18 (Homo sapiens, UniProt Q6FI13)", "assay": "cross-linking MS", "setting": "hits only", "endpoint": "interaction screen", "value": "cross-linked"}
